Published values from different studies.
Lines come from different studies, so protocols differ. Numbers after ± are the reported error.
Target: Histone deacetylase 8 (HDAC8, Homo sapiens, UniProt Q9BY41)
Residues used in one study (Q9BY41 1-377): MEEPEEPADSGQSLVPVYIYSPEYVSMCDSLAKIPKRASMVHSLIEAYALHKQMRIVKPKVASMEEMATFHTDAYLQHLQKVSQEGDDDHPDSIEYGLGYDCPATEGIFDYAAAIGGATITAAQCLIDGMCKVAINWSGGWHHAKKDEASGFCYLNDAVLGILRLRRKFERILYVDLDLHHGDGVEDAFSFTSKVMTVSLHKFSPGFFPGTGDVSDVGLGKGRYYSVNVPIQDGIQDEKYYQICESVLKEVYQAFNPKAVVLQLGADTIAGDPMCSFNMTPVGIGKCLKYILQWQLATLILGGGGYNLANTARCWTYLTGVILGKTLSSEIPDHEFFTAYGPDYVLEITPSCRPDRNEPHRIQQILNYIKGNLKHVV

O=C(/C=C/c1ccc2ccccc2c1)NO — IC50 (enzyme activity, inhibitor): 205 nM
O=C(CCCCCCN(Cc1cccnc1)Cc1cccnc1)NO — IC50 (enzyme activity, inhibitor, fluorescence): 1400 nM
O=c1[nH]sc2ccccc12 — IC50 (enzyme activity, inhibitor): > 10000 nM
O=C(CCCCCCNC(=O)c1cc(C(=O)c2ccccc2)cn1Cc1ccc(F)cc1)NO — IC50 (enzyme activity, inhibitor): 920 nM
O=c1c2ccccc2sn1Cc1ccccc1 — IC50 (enzyme activity, inhibitor): 630 nM
COCCn1cc2c(n1)CN(C(=O)Nc1nc(-c3ccc(F)cc3F)ccc1N)C2 — IC50 (deacetylase activity, inhibitor, recombinant enzyme): > 30000 nM
O=c1c2ccccc2on1-c1ccccc1 — IC50 (enzyme activity, inhibitor): > 10000 nM
O=C(CCCCCCN(Cc1cc2ccccc2[nH]1)Cc1cc2ccccc2[nH]1)NO — IC50 (enzyme activity, inhibitor, fluorescence): 4600 nM
Cc1ncc2c(n1)CN(C(=O)Nc1nc(-c3cccs3)ccc1N)C2 — IC50 (deacetylase activity, inhibitor, recombinant enzyme): > 30000 nM
CCCc1nc2ccccn2c1Nc1ccc(C(=O)NO)cc1 — IC50: 1580 ± 210 nM
Cn1cc2c(n1)CN(C(=O)Nc1nc(-c3ccc(F)cc3)ccc1N)C2 — IC50 (deacetylase activity, inhibitor, recombinant enzyme): > 30000 nM
O=C(CCCCCCNCc1ccc([N+](=O)[O-])cc1)NO — IC50 (enzyme activity, inhibitor, fluorescence): 2100 nM

Some of these lines once more:
CCCc1nc2ccccn2c1Nc1ccc(C(=O)NO)cc1 — IC50: 1580 ± 210 nM
